{"data": "Measurements collected from several papers", "note": "Every numbered part comes from another study and shows a few of its results, in no order."}
{"data": "Sample 1", "target": "Sal-like protein 4, full length isoform B (SALL4, Homo sapiens, UniProt Q9UJQ4-2, residues 1-616)", "technique": "universal PBM", "form": "double-stranded DNA, one strand shown", "sample": "in vitro", "tested at": "not given", "notes": "8-mer, flanks averaged, mean of replicates", "reading": "higher = stronger binding"}
{"Oligonucleotide": "CCCTGAGA", "E-score": -0.286}
{"Oligonucleotide": "ACGGGGAT", "E-score": -0.17}
{"Oligonucleotide": "CAGATCAC", "E-score": -0.0646}
{"Oligonucleotide": "ATAACCGC", "E-score": 0.129}
{"Oligonucleotide": "CGGAAGAG", "E-score": -0.125}
{"Oligonucleotide": "CACTCCTG", "E-score": -0.0842}
{"Oligonucleotide": "CCATACGC", "E-score": 0.0428}
{"Oligonucleotide": "ATGGTAAG", "E-score": 0.0562}
{"Oligonucleotide": "CCATAGGA", "E-score": -0.00899}
{"Oligonucleotide": "CCCTGGCG", "E-score": -0.332}
{"Oligonucleotide": "CAAGCTTC", "E-score": 0.0762}
{"Oligonucleotide": "GTGTCAAC", "E-score": -0.162}
{"Oligonucleotide": "CGTTACAG", "E-score": -0.151}
{"Oligonucleotide": "TTCGCCAA", "E-score": -0.012}
{"Oligonucleotide": "AACCGAGG", "E-score": -0.176}
{"Oligonucleotide": "AGCCAATC", "E-score": -0.071}
{"Oligonucleotide": "CCCGCTGC", "E-score": -0.0309}
{"Oligonucleotide": "AGCCCTAA", "E-score": 0.0222}
{"Oligonucleotide": "ACGGTGAC", "E-score": -0.143}
{"Oligonucleotide": "GTAGGTGA", "E-score": -0.043}
{"Oligonucleotide": "GCTTATGA", "E-score": 0.192}
{"Oligonucleotide": "TAACCATA", "E-score": 0.281}
{"Oligonucleotide": "CCGGGAAA", "E-score": -0.164}
{"Oligonucleotide": "GCGTCCGA", "E-score": -0.369}
{"Oligonucleotide": "AAAGAATC", "E-score": 0.0274}
{"data": "Sample 2", "target": "RNA binding protein fox-1 homolog 2, RRM domain, GST-SBP tag (RBFOX2, Homo sapiens, UniProt O43251-10, residues 100-194)", "technique": "RNA Bind-n-Seq", "form": "RNA", "sample": "in vitro", "tested at": "365 nM", "notes": "natural RNA segment, single round, ends assumed", "relative to": "no-protein control", "reading": "higher = stronger binding", "shared flanks, not repeated": "GGGAGUUCUACAGUCCGACGAUC … UGGAAUUCUCGGGUGCCAA", "Target sequence (chain)": "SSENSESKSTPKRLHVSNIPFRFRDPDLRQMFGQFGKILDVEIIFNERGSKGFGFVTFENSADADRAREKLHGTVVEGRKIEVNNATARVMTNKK"}
{"Oligonucleotide": "CCUACCCCAGAAAUAGGACAAUUCACUUCAUUGACCAAGAUGAUCACAUGGAAGGCGGCACAGAGGCAGCUGUGUGGGCUGCAGAUUUCCUGUGUGGGGUUCAGCGUAGA", "RBNS enrichment (R)": 0.426}
{"Oligonucleotide": "UGCAUAUUACACCAAACGUUUGAGGGAAAAAUCCUCAUUCGUAAAGGAUUUUGGAUGUAUAAUCUAAAACUCAACAAUAAAGAAAUAAUAUUCCAAGUCUCUGGUUUCCU", "RBNS enrichment (R)": 0.457}
{"Oligonucleotide": "GCGGCCCCUCCUCUGCUUCCCCCUGAACCCACCCCCCACGGAAACCAGCCCUGCGGGCUAAGCAGGUGCGACCCCAGCAAGAGGGGUGCUCUGGGACCAGACAUGAAGUG", "RBNS enrichment (R)": 0.423}
{"Oligonucleotide": "GGCCAGAGAAGACAGUGCUCGUUAGCACUGGUCCAGGAAACCCUGGCUUGCUUUCCAAGCCCAAUGAAGGGAAAGUCAGCUUACAGAGCCAAUGAUGGAGCCACAUGAAU", "RBNS enrichment (R)": 0.343}
{"Oligonucleotide": "AGUCAUGUGGAAAUGGUGUACCCGGCUGAGAUUUUUACAGCAAUAAAGGGGACUCUCACUAGGCUAGAGGCCGCCUUCUGCUCCUCUCUUGCACUGACUCUGUGGAGGGG", "RBNS enrichment (R)": 0.464}
{"Oligonucleotide": "CAAGCAGGAAAAAAGAAACACCAACAGUUGCCAGUGUUUUUGCUUUUUAGCUUAAAAGCAUAGUGAAGAUGCUUGAGGAAGACUUUGCUACCUGGGGUGUGUAGACAGAC", "RBNS enrichment (R)": 0.595}
{"Oligonucleotide": "CUUUGUAGACAUUGGUAUUUGUUUUACUUAGCAAUAAGAAUGGUGAAAUUCAAAUUCUCGUUUAGAAGUGAAAGCUGUCAGGUUGAUAGCAAGCAUGCACAUCAAAUUCA", "RBNS enrichment (R)": 19.7}
{"Oligonucleotide": "UGUGACUCAGUUCUUUCCAUCUGUUUGUCCCGCUGCAAGCCUCUUUCUGCGCUGACUGUGACAUUGGAACGUGGCCUUCCUGUCACCCCCUCCGUGCCACGCACUGAAGG", "RBNS enrichment (R)": 0.314}
{"Oligonucleotide": "AGUUUUUCUUACGACUCAGACAGGUGGGAUGGACAGACAGGUGCAUGUUACUGCGUUCUGUGUCGGAAAGUAUAGUAUGCUCUAAGCAGUAGGCCUCUUGACUUUCUUAC", "RBNS enrichment (R)": 0.776}
{"Oligonucleotide": "UGGUCAGAGGGACAGAGCAAGGAAUGCAUCCUGAGCCCACAGCUUUGACCACUGUGAUCCAGAAGAGAGGUGCACUACGUGGGAAGUGCUGAUUCCACAGCAUGCAGCCU", "RBNS enrichment (R)": 2.45}
{"Oligonucleotide": "AGCUCUUUUGGCCUGGGUACAGCAGAAAACUAGCAGUUUUCCUACUUGGCGCAAGUGACUUGUGCCUCCUUGUCUGUCCUUUGUCAGCACAGGUGCAGGCAAACCCUUCC", "RBNS enrichment (R)": 0.27}
{"Oligonucleotide": "GAAAAAAAUUAAGAAACAACAGGCCAAACAUAUUUGCAAGUGGAUUUAAACGACUGGUCCAAAUUUUGCCUUCAGUUACAAGUCUGUGGCUCUCAUUUGCCUCCUCAGAA", "RBNS enrichment (R)": 0.555}
{"data": "Sample 3", "target": "Fragile X messenger ribonucleoprotein 1, C-terminal low-complexity region (Fmr1, Mus musculus, UniProt P35922)", "technique": "RNA Bind-n-Seq", "form": "RNA", "sample": "in vitro", "tested at": "200 nM", "notes": "whole 134-nt RNA, ends assumed", "with": "150 mM KCl", "relative to": "input library", "reading": "higher = stronger binding", "shared flanks, not repeated": "GGGAGUUCUACAGUCCGACGAUC … UGGAAUUCUCGGGUGUCAAGG"}
{"Oligonucleotide": "UGGGAGGUGGAUUUUGUUUAUUUUUUUAGCUCAUUUCCAGGAGUGGGAAUUUUUUUUUAAUAUGUGUCAUGAAUAAAGUUGUUUUUGAAA", "log2 enrichment": 0.0249}
{"Oligonucleotide": "AGUCCUGUGCUACACAUCGUAUGUACCGAAUCGGUUUUUGGGGUUUUUGGGUUUUUGGAAAGUAUUAUGUUACGCCGUUCGGAUCUGCAC", "log2 enrichment": -0.197}
{"Oligonucleotide": "CACAGACAACGCGCACCCACACAGACACAGAGGGAAGGGGUUGGGAUGGGGACAGGGUGCACAGCAGGGCGGGGUAGGACCCCAGCCCCU", "log2 enrichment": 1.27}
{"Oligonucleotide": "CCUGUGCUACACAUCGUAUGUACCGAAUCGGGGAAAAAAAGGGGUUUGGGGAAAAAGGGGAAAGUAUUAUGUUACGCCGUUCGGAUCUGC", "log2 enrichment": 0.262}
{"Oligonucleotide": "UGGAACAGCAGCUGCCACUCAGGCGUAAUUCCCACCUAGAGGAGAGUUUCACAUCCACCGAAGAAUCUUCCGAAGAAAAUGUCAACUUUU", "log2 enrichment": 0.444}
{"Oligonucleotide": "CCUCAAGUCCUGUGCUACACAUCGUAUGUACCGAAUCGGUGGAAAGGUUUGGAAAGUAUUAUGUUACGCCGUUCGGAUCUGCACUUCCAG", "log2 enrichment": -0.277}
{"Oligonucleotide": "UCAAGUCCUGUGCUACACAUCGUAUGUACCGAAUCGGGGUUGGGUUGGGUUGGGGAAAGUAUUAUGUUACGCCGUUCGGAUCUGCACUUC", "log2 enrichment": 1.41}
{"Oligonucleotide": "UCAAGUCCUGUGCUACACAUCGUAUGUACCGAAUCGGUUUGGUUUUUGGAAAGGAAAGUAUUAUGUUACGCCGUUCGGAUCUGCACUUCC", "log2 enrichment": -0.442}
{"Oligonucleotide": "UUUCAGGGCGCCCUGCGUCCGGCAGAGGAGGCGAGCAUCCCGCUCAGGUGAUGAGGAACCCCUCGCGCACCCAGCGCAGAAGGCUGCUGC", "log2 enrichment": -0.903}
{"Oligonucleotide": "CCUGUGCUACACAUCGUAUGUACCGAAUCGGGGUUUUUUGGGUUUUUUGGUUUUUUGGGGAAAGUAUUAUGUUACGCCGUUCGGAUCUGC", "log2 enrichment": -0.389}
{"Oligonucleotide": "UAACUUUAGAGGAGGAUCUGAUGGAUAUGGCAGUGGACGUGGAUUUGGGGAUGGCUAUAAUGCGUAUGGAGGAGGACCUGGAGGUGGCAA", "log2 enrichment": 0.0716}
{"Oligonucleotide": "UGGGAGGUGGAUUUUGUUUAUUUUUUUAGCUCAUUUCCAGGGGUGGGAAUUUUUUUUUAAUAUGUGUCACGAAUAAAGUUGUUUUUGAAA", "log2 enrichment": 0.431}
{"Oligonucleotide": "UGGCCCUGGUGGCAUGCGGGGAGGAAGAGGUGGCCUCAUAGAUCGUGGUGGUCCCGGUGGAAUGUUCAGAGGUGGCCGUGGUGGAGACAG", "log2 enrichment": 0.0811}
{"Oligonucleotide": "UGGCCCUGGUGGCAUGCGGGGAGGAAGAGGUGGCCUCAUGGAUCGUGGUGGUCCCGGUGGAAUGUUCAGAGGUGGCCGUGGUAGAGACAG", "log2 enrichment": -0.0966}
{"data": "Sample 4", "target": "Interferon regulatory factor 7, full length, phosphomimetic (IRF7, Homo sapiens, UniProt Q92985, residues 1-503, S101K/S471D/S472D/S475D/S476D/S477D/S483D/S484D/S487D)", "technique": "protein-binding microarray", "form": "double-stranded DNA, one strand shown", "sample": "in vitro", "tested at": "250 nM", "notes": "60-bp whole probe", "with": "salmon DNA 0.4 mg/ml", "relative to": "random background probes", "reading": "higher = stronger binding", "shared flanks, not repeated": "GCCTAGCAC … GTCTTGATTCGCTTGACGCTGCTG", "UniProt Q92985, sequence (whole entry, unmodified, looked up)": "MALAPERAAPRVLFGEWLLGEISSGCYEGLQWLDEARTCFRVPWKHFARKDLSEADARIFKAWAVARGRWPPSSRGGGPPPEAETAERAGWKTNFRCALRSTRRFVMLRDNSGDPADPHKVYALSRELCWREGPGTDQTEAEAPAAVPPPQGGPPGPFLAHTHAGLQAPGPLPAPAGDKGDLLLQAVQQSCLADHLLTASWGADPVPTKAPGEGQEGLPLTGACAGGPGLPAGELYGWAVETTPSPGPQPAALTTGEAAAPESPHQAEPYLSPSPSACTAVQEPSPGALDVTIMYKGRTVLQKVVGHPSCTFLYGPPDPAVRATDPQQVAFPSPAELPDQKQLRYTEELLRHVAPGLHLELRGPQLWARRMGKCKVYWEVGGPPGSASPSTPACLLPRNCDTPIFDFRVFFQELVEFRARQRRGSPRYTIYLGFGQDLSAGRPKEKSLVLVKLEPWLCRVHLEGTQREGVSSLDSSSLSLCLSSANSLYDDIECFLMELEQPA"}
{"Oligonucleotide": "GATGGTCTCCTACTGCTGACGTGCTAG", "log fluorescence [z-score]": -0.165}
{"Oligonucleotide": "GACGGTATCGGCCTGGGGACGTGCTAG", "log fluorescence [z-score]": -0.523}
{"Oligonucleotide": "TCACCTATAGGGCCTGACACTGTGCTA", "log fluorescence [z-score]": -0.226}
{"Oligonucleotide": "AACTTTGGTATCTGGCATCTGTGCTAG", "log fluorescence [z-score]": -0.117}
{"Oligonucleotide": "GACGGTTTCCTTTCCCTGAGGTGCTAG", "log fluorescence [z-score]": 4.85}
{"Oligonucleotide": "TCAGATATCAGACTGGATTAGTGCTAG", "log fluorescence [z-score]": 0.183}
{"Oligonucleotide": "GACGATCTGGGGTATCGAGACGTGCTA", "log fluorescence [z-score]": -0.438}
{"Oligonucleotide": "TACAAATCCAGCCCTACAGAGTGCTAG", "log fluorescence [z-score]": 0.0925}
{"Oligonucleotide": "CAAGTTACCCACCTCAGGTAGTGCTAG", "log fluorescence [z-score]": 0.811}
{"Oligonucleotide": "TCAGTTTCCAGTATATTACTGTGCTAG", "log fluorescence [z-score]": 2.31}
{"Oligonucleotide": "AGGAAGATCATTCTCACTGCGTGCTAG", "log fluorescence [z-score]": -0.222}
{"Oligonucleotide": "TCAACTCTTGCTTTTTAACTGTGCTAG", "log fluorescence [z-score]": -0.0299}
{"Oligonucleotide": "GAGGATCTCAGACTGGAGACGTGCTAG", "log fluorescence [z-score]": -0.693}
{"Oligonucleotide": "TGTCATTTACATTTTAGTAGGTGCTAG", "log fluorescence [z-score]": 0.303}
{"Oligonucleotide": "GACGGACTGCTTCCCCTGACGTGCTAG", "log fluorescence [z-score]": -0.159}
{"Oligonucleotide": "CCATTTCTGTTTTTGCTTTCGTGCTAG", "log fluorescence [z-score]": 3.35}
{"Oligonucleotide": "GACGATTTGGGGACTGGAGACGTGCTA", "log fluorescence [z-score]": 0.0475}
{"Oligonucleotide": "TTAGGTTTCGGCTTTCGGTTAGTGCTA", "log fluorescence [z-score]": 8.61}
{"Oligonucleotide": "TTAGGCTTCCTTATCCTTTAGTGCTAG", "log fluorescence [z-score]": -0.238}
{"Oligonucleotide": "TCAAAAATGGAAACTCGTACTGTGCTA", "log fluorescence [z-score]": 0.848}
{"Oligonucleotide": "GACGATATCGGGAATGGAGACGTGCTA", "log fluorescence [z-score]": 0.103}
{"note": "For quick reference, copied from above (sample 4):"}
{"Oligonucleotide": "GACGATCTGGGGTATCGAGACGTGCTA", "log fluorescence [z-score]": -0.438}
{"Oligonucleotide": "GACGATTTGGGGACTGGAGACGTGCTA", "log fluorescence [z-score]": 0.0475}
{"Oligonucleotide": "TCACCTATAGGGCCTGACACTGTGCTA", "log fluorescence [z-score]": -0.226}
{"Oligonucleotide": "CAAGTTACCCACCTCAGGTAGTGCTAG", "log fluorescence [z-score]": 0.811}
{"Oligonucleotide": "GACGGTTTCCTTTCCCTGAGGTGCTAG", "log fluorescence [z-score]": 4.85}
{"Oligonucleotide": "GACGGTATCGGCCTGGGGACGTGCTAG", "log fluorescence [z-score]": -0.523}
{"Oligonucleotide": "AGGAAGATCATTCTCACTGCGTGCTAG", "log fluorescence [z-score]": -0.222}
{"Oligonucleotide": "CCATTTCTGTTTTTGCTTTCGTGCTAG", "log fluorescence [z-score]": 3.35}
{"Oligonucleotide": "TACAAATCCAGCCCTACAGAGTGCTAG", "log fluorescence [z-score]": 0.0925}
